Measurements pooled from the literature.
Each line is one published result; not all experiments were run side by side.
Target: Mitogen-activated protein kinase kinase kinase 3 (MAP3K3, Homo sapiens, UniProt Q99759)

SMILES | assay | setting | scale | measurement | result
CCn1cc(C(=O)O)c(=O)c2c(N)c(F)c(NC3CCCCC3)cc21 | kinase activity | 0.1 µM, together with: ATP at Km |  | inhibition | 5.7%
O=C(Cc1ccc(OCc2ccccc2)cc1)NC1(C(=O)O)CCN(C(=O)c2ccc(-c3cccc(Cl)c3)cc2)CC1 | enzyme activity, inhibitor | 10 µM |  | activity vs control | 97%
C=CC(=O)N1CCc2ccc(-n3c(=O)ccc4cnc5ccc(-c6cnn(C)c6)cc5c43)cc21 | KINOMEscan | 1 µM | reference: DMSO control | remaining binding | 98%
NC(=O)[C@@H](O)C[C@H]1CCc2sc3ncnc(O[C@H]4CC[C@H](N5CCOCC5)CC4)c3c21 | enzyme activity, inhibitor | 10 µM |  | inhibition | 0%
COc1c(Cl)cccc1Nc1c(-c2ccncc2C#C[C@@]2(C)CCCN2C(=O)/C=C/CN(C)C)[nH]c2c1C(=O)NCC2 | binding, competition with immobilised ligand | 3 µM |  | remaining binding | 85%
CNC1C[S+]2CC[S+]3CC[S+](C1)[Ru-4]321([N]=C=S)[n]2c3ccc(OC)cc3c3c4c(c5cc(F)c[n+]1c5c32)C(=O)NC4=O (stereo not drawn) | KinomeScan | 0.1 µM | reference: untreated | remaining binding | 96%
CN1CCN(Cc2ccc(-c3ccc(CO[C@H]4CCC[C@@H]4NC(=O)c4cc(-c5cnn(C)c5)cnc4N)cc3)cc2)CC1 | enzyme activity, inhibitor | 0.1 µM |  | inhibition | -10%
Nc1ncc2c(n1)-c1c([nH]c3ccc(C4=CCOCC4)cc13)CCC2 | binding, competition with immobilised ligand | 1 µM |  | remaining binding | 100%
CCN1CCN(Cc2ccc(C(=O)Nc3ccc(C)c(NCc4cnc5[nH]ccc5c4OC)c3)cc2C(F)(F)F)CC1 | binding, competition with immobilised ligand | 1 µM |  | remaining binding | 4.8%
COc1cc(Nc2nc(C)cc(-c3cnn4nc(OC)ccc34)n2)cc(C(F)(F)F)c1 | inhibitor | 1 µM | reference: control | remaining activity | 72%
Cc1cc(NC(=O)[C@H](O)c2cc(F)cc(F)c2)ccc1-c1cnc(N)c(C(=O)NC(C)C)c1 | binding, competition with immobilised ligand | 10 µM |  | remaining binding | 30%
CC(C)=CC1OC(C)(C)C2C=C3C(=O)C(Cl)=CC(O)C3C3C(O)C4OC4C(=O)C132 (stereo not drawn) | cell-free assay, competition with immobilised ligand | 10 µM |  | remaining binding | 73%

Some of these lines once more:
SMILES | assay | setting | scale | measurement | result
NC(=O)[C@@H](O)C[C@H]1CCc2sc3ncnc(O[C@H]4CC[C@H](N5CCOCC5)CC4)c3c21 | enzyme activity, inhibitor | 10 µM |  | inhibition | 0%
